Experimental data of several laboratories.
Protocols differ between the studies behind these lines. Values joined by “and” are separate records of one study, mostly repeats; a detail may differ. ± marks the error that the study gave.

CN(C)C(=O)Oc1cccc([N+](C)(C)C)c1 — train-of-four ratio (neuromuscular block reversal; rat; dose not given, 17.5 (unit not given), together with: cisatracurium; reference: T1 twitch): 96.9
COc1ccccc1C(=O)NCc1ccc(CNS(=O)(=O)c2ccccc2)cc1 — ear edema (xylene-induced ear edema; mouse; intraperitoneal, 10 mg/kg): no effect
c1ccc(-c2n[nH]cc2-c2ccnc3ccccc23)nc1 — log2 fold change (kinase binding, competitor, MIB/MS competition, item: GIN4; Candida albicans cell lysate; 10 µM; reference: DMSO): 1.69
COc1cc2nccc(Oc3ccc(NC(=O)C4(C(=O)Nc5ccc(F)cc5)CC4)cc3)c2cc1OC — partial response rate (Kaposi sarcoma patients; 60 mg daily, 5 of sample A patients): 26%
N[C@@H](CC(=O)N1CCn2c(nnc2C(F)(F)F)C1)Cc1cc(F)c(F)cc1F — total cholesterol (type 2 diabetes patients on metformin, fasting plasma; oral, 100 mg once daily, 28 weeks): 188 mg/dL
Cc1nn(-c2nc3c(F)cc(F)cc3s2)c(O)c1C(c1ccc(C(F)(F)F)cc1)c1c(C)nn(-c2nc3c(F)cc(F)cc3s2)c1O — histology score (item: inflammatory infiltration; mouse, cerulein-induced acute pancreatitis; 25 mg/kg; direction not given): 0 and 1 and 3
C=CC[C@@H]1/C=C(\C)C[C@H](C)C[C@H](OC)[C@H]2O[C@@](O)(C(=O)C(=O)N3CCCC[C@H]3C(=O)O[C@H](/C(C)=C/[C@@H]3CC[C@@H](O)[C@H](OC)C3)[C@H](C)[C@@H](O)CC1=O)[C@H](C)C[C@@H]2OC — mRNA level (qPCR, item: Egf; Wistar Kyoto rats, male, kidney cortex; ip, 0.5 mg/kg/day, day 28; reference: vehicle): decreased
COc1ccccc1[C@H](Cn1c(=O)n(C(C)(C)C(=O)O)c(=O)c2c(C)c(-c3ncco3)sc21)OC1CCOCC1 — fractional hepatic DNL ([1-13C]acetate infusion, isotopomer analysis; overweight or obese healthy men, plasma VLDL-TG palmitate; oral, 20 mg single dose, 2 h post-dose, together with: oral fructose): 8.38 % new palmitate
COc1cc(Nc2ncc3c(n2)-c2ccc(Cl)cc2C(c2c(F)cccc2OC)=NC3)ccc1C(=O)O — median response score (female NOD/scid mice, ALL-19 B-precursor ALL xenograft; 20.8 mg/kg, 5 days weekly, score scale 0 to 10; direction not given): 8
COc1nc(-c2cc(C)c(N[C@@H](C)c3cc(F)cc(F)c3)nn2)ccc1-n1cnc(C)c1 — change in level (item: Aβ42; rat Sprague-Dawley male, CSF; oral, 25 mg/kg daily for 9 days, 4 h after dose; reference: vehicle): 80%
C[C@H]1O[C@@H](O[C@H]2CC[C@@]3(C)[C@@H](CC[C@]4(C)[C@@H]3C=C[C@]35OC[C@@]6(CCC(C)(C)C[C@H]63)[C@@H](O)C[C@]54C)[C@]2(C)CO)[C@H](O)[C@@H](O[C@@H]2O[C@H](CO)[C@@H](O)[C@H](O)[C@H]2O)[C@H]1O — protein level (Western blot, item: PPARα; chronic-plus-binge ethanol-fed mice, liver; dose not given, low dose, unit not given; reference: β-actin): 0.664 and 1.05 and 1.2
CSCCNc1nc(SCCC(F)(F)F)nc2c1ncn2[C@@H]1O[C@H](COP(=O)(O)OP(=O)(O)C(Cl)(Cl)P(=O)(O)O)[C@@H](O)[C@H]1O — patients with high reactivity (ADP-induced platelet aggregation, LTA, >46% aggregation; human patients, platelet-rich plasma; dose not given, 1 h, together with: ADP 5 µM): 55%
CC(C)NCC(O)c1ccc(O)c(O)c1 (stereo not shown) — sarcomere length (ventricular cardiomyocytes, C57BL/6 mouse; dose not given, 0.296 s): 1.72 µm
C[C@H](NC(=O)c1c(C(F)F)nn(C)c1Oc1cccc(C(F)(F)F)c1)c1ccc(C(=O)O)cc1 — stable disease (irRECIST; human, advanced tumours; 750 mg; best overall response): 42.9%
Cn1cc(Nc2nccc(-c3ccc4c(c3)CN(C3COC3)CC[C@H]4NC(=O)c3cn(C(C)(C)C)nn3)n2)cn1 — pathway activation z-score (item: interactions, ligand-receptor, VEGF family; splenic B cells, mice; 30 mg/kg, IgD-activated in vivo; reference: vehicle, direction not given): 2.11
Oc1cc2c(cc1O)C(Cc1ccccc1)NCC2 (stereo not shown) — Fe2+ chelation (ferrozine; cell-free; 100 µM, DMSO solvent): 90.61 ± 0.71%
O=C(O)/C=C/c1ccc(Cn2ccnc2)cc1 — prothrombin time (rat, MCAO/R model, plasma; intravenous, dose not given, 4 h): 16.6 s
O=C(O)CNC(=O)Cc1ccccc1 — sarcomere length (ventricular cardiomyocytes, C57BL/6 mouse; dose not given, 0.476 s): 1.67 µm
COC[C@@H](c1ccc(C(F)(F)F)cc1)N1CCN(C2(C)CCN(C(=O)c3c(C)ncnc3C)CC2)C[C@@H]1C — HIV-1 RNA decrease (human, HIV infected; dose not given, week 2, low Cmin subjects): 0.76 log10 copies/mL
CN[C@@H]1COc2c(S(=O)(=O)NC(=O)Nc3c4c(cc5c3CCC5)CCC4)cnn2C1 — inhibition (item: IL-1β; human participants, whole blood ex vivo; 450 mg single dose, 72 h, together with: LPS/ATP; reference: baseline): 2%
O=C1O[C@H]([C@@H](O)CO)C(O)=C1O — inhibition (nitric oxide scavenging; 40 µM): 28.6%
N#Cc1ccc2c(c1)[C@H]1CCCN(C(=O)c3ccc4[nH]cnc4c3)[C@H]1C2 — C-peptide AUC change (meal tolerance test; human, Phase II trial; 80 mg once daily, day 28, AUC0-2 h, adjusted mean; reference: baseline): 0.14 pmol/h/L
Cn1cc([C@H]2C[C@H]3CSC(N)=N[C@@]3(c3ccc(F)cc3F)CO2)cn1 — Aβ40 level (item: Aβx-40; Mus musculus wild-type, cerebrospinal fluid; subcutaneous, 50 mg/kg, 13 h): 0.94 ng/mL
O=C(OC(C(F)(F)F)C(F)(F)F)N1CCN(Cc2cccc(Oc3ccccc3)c2)CC1 — tracer distribution volume (PET; rhesus monkey, striatum; intravenous, 0.3 mg/kg, pretreatment blocking, together with: [18F]T-401): 1.4 mL/cm3
COc1cc2cc(-c3ccc(CC(=O)Nc4cc(C(C)(C)C(F)(F)F)no4)cn3)cnc2cc1OC — partial response as best response (RECIST v1.1; RET-altered advanced solid tumour patients; oral, 10 mg once daily, phase I): 0%
COc1cc(C2NCCc3cc(O)c(O)cc32)cc(OC)c1O (stereo not shown) — Fe2+ chelation (ferrozine; cell-free; 100 µM, DMSO solvent): 92.85 ± 0.4%
NC(=O)c1cnc2[nH]ccc2c1N[C@@H]1[C@@H]2CC3C[C@H]1C[C@@](O)(C3)C2 — change from baseline (flow cytometry, item: CD8+ effector memory T cells; Japanese healthy subjects, peripheral blood; oral, 10 mg twice daily, day 7): -0.03%
C[C@H]1C[C@H]2CSC(N)=N[C@@]2(c2nc(NC(=O)c3ccc(OC(F)F)cn3)cs2)CO1 — total plasma Aβ change (healthy adults, fed, plasma; oral, 200 mg single dose, 24 h; reference: baseline, placebo-adjusted): -58.4%
C[C@H](Oc1ccc(Br)cc1-c1ccon1)C(=O)O — difference from placebo (first response peak; human, tibialis anterior muscle; 50 mg, 30-15 Hz, SAD): 1.38%
CN(C(=O)n1cnc(-c2ccc[n+]([O-])c2)c1)C1CCCCC1 — change in licking score (mice, formalin paw test; 1 mg/kg, late phase, together with: anandamide 5 mg/kg i.p.; reference: anandamide alone, direction not given): -65%
CC(=O)Oc1cc2c(s1)CCN(C(C(=O)C1CC1)c1ccccc1F)C2 (stereo not shown) — patients with IPA above 80% (light transmittance aggregometry; human patients, platelet-rich plasma; dose not given, 15 min, together with: ADP 20 µM; reference: patients): 0%
CCOC(=O)c1c(NC(=O)CNC(C)C)sc2c1CCCCC2 — epileptiform spike rate (APP J20 mice; intraperitoneal, 50 mg/kg, first 2 h, NREM sleep): 90.5 ± 16.8 spikes/h
N#Cc1ccc2c(c1)[C@H]1CCCN(C(=O)c3ccc4[nH]cnc4c3)[C@H]1C2 — total urinary corticosteroid excretion (T2DM patients with overweight or obesity, urine; oral, 160 mg, day 1, 0-24 h, multiple dosing, adjusted geometric mean; reference: baseline day -1, -24-0 h): 156%
CO[C@H]1CC[C@H](N2C(=O)CNc3ncc(-c4ccc(C(C)(C)O)nc4)nc32)CC1 — p4EBP1 change from baseline (flow cytometry; stimulated T cells, human, blood; 30 mg single dose, 5 h, mean; reference: baseline): -37%
Cc1ccc([C@@H]2O[C@H](CO)[C@@H](O)[C@H](O)[C@H]2O)cc1Cc1ccc(-c2ccc(F)cc2)s1 — change in fasting plasma glucose (Japanese type 2 diabetes patients; 200 mg, day 2; reference: day 1): -32 mg/dL
CC(C)[C@H](C(=O)Nc1ccc(C(=O)NO)cc1)c1ccccc1 — tumour volume (volumetric MRI; human, left schwannoma; dose not given, day 809): 0.111 cm3
NCC(=O)Nc1cncc(-c2nn3c(=O)cc(N4CCNCC4)nc3s2)c1 — inhibition (ADP-induced platelet aggregation, light transmission aggregometry; human, stable CAD on aspirin, ex vivo platelets; subcutaneous, 0.04 mg/kg, 30 min post-dose, mean value, together with: ADP 20 µM): 45%
OC(CCN1CCCCC1)(c1ccccc1)C1CC2C=CC1C2 (stereo not shown) — EEG power, gamma, Fz-Cz (resting-state EEG; healthy elderly humans; oral, 4 mg, eyes closed, LS mean): 0.5 µV²
CC1(C)CCC(c2ccc(Cl)cc2)=C(CN2CCN(c3ccc(C(=O)NS(=O)(=O)c4ccc(N[C@H](CCN5CCOCC5)CSc5ccccc5)c(S(=O)(=O)C(F)(F)F)c4)cc3)CC2)C1 — EC50 (cell killing; canine blood CD3+ T cells, dog 30; 24 h): 39 nM
N#Cc1ccc2c(-c3ccncc3)c(-c3ccc(F)cc3)nn2c1 — log2 fold change (kinase binding, competitor, MIB/MS competition, item: PKH3; Candida albicans cell lysate; 100 nM; reference: DMSO): 0.0286
CC[C@H](C)[C@H](NC(=O)[C@H](C)NC(=O)CNC(=O)[C@H](Cc1ccccc1)NC(=O)[C@H](CC(N)=O)NC(=O)[C@H](CC(N)=O)NC(=O)[C@H](CO)NC(=O)[C@H](CO)NC(=O)[C@H](Cc1c[nH]cn1)NC(=O)[C@@H](NC(=O)[C@H](CC(C)C)NC(=O)[C@H](Cc1ccccc1)NC(=O)[C@H](CC(N)=O)NC(=O)[C@H](C)NC(=O)[C@H](CC(C)C)NC(=O)[C@H](CCCNC(=N)N)NC(=O)[C@H](CCC(N)=O)NC(=O)[C@@H](NC(=O)[C@H](C)NC(=O)[C@@H]1CSSC[C@H](NC(=O)[C@@H](N)CCCCN)C(=O)N[C@@H](CC(N)=O)C(=O)N[C@@H]([C@@H](C)O)C(=O)N[C@@H](C)C(=O)N[C@@H]([C@@H](C)O)C(=O)N1)[C@@H](C)O)C(C)C)C(=O)N[C@@H](CC(C)C)C(=O)N[C@@H](CO)C(=O)N[C@@H](CO)C(=O)N[C@H](C(=O)N[C@@H](CC(N)=O)C(=O)N[C@H](C(=O)NCC(=O)N[C@@H](CO)C(=O)N[C@@H](CC(N)=O)C(=O)N[C@H](C(=O)N[C@@H](Cc1ccc(O)cc1)C(N)=O)[C@@H](C)O)C(C)C)[C@@H](C)O — total insulin content (ELISA; isolated mouse islets; 10 µM, 24 h, unit not given; reference: control): 0.565 and 0.537
N#Cc1ccn2c(-c3ccncc3)c(-c3ccc(F)cc3)nc2c1 — log2 fold change (kinase binding, competitor, MIB/MS competition, item: IKS1; Candida albicans cell lysate; 10 µM; reference: DMSO): -0.31
C=CCn1c(=O)c2cnc(Nc3ccc(N4CCN(C)CC4)cc3)nc2n1-c1ccc2c(n1)[C@@](O)(CC)CC2 — tumour growth inhibition (MIA PaCa-2, BALB/c nude mice, xenograft; oral, 80 mg/kg once daily, day 28; reference: vehicle): 32.6%

Repeated from above:
C[C@H](NC(=O)c1c(C(F)F)nn(C)c1Oc1cccc(C(F)(F)F)c1)c1ccc(C(=O)O)cc1 — stable disease (irRECIST; human, advanced tumours; 750 mg; best overall response): 42.9%
OC(CCN1CCCCC1)(c1ccccc1)C1CC2C=CC1C2 (stereo not shown) — EEG power, gamma, Fz-Cz (resting-state EEG; healthy elderly humans; oral, 4 mg, eyes closed, LS mean): 0.5 µV²
CN[C@@H]1COc2c(S(=O)(=O)NC(=O)Nc3c4c(cc5c3CCC5)CCC4)cnn2C1 — inhibition (item: IL-1β; human participants, whole blood ex vivo; 450 mg single dose, 72 h, together with: LPS/ATP; reference: baseline): 2%
N#Cc1ccc2c(c1)[C@H]1CCCN(C(=O)c3ccc4[nH]cnc4c3)[C@H]1C2 — C-peptide AUC change (meal tolerance test; human, Phase II trial; 80 mg once daily, day 28, AUC0-2 h, adjusted mean; reference: baseline): 0.14 pmol/h/L
CN(C(=O)n1cnc(-c2ccc[n+]([O-])c2)c1)C1CCCCC1 — change in licking score (mice, formalin paw test; 1 mg/kg, late phase, together with: anandamide 5 mg/kg i.p.; reference: anandamide alone, direction not given): -65%
